Published values from different studies.
Numbered parts are unrelated; each lists some results of a single study. “And” joins repeats or separate records; there may be more than shown.

Sample 1
Target: Replicase polyprotein 1ab, nsp13 helicase (rep, Severe acute respiratory syndrome coronavirus 2, UniProt P0DTD1)
Mode: inhibitor
Tested at: 20 µM
The inhibition of `NCCCCN` is reported as 1.21%.
With `CCC(CC)Nc1cc(C)nc(Oc2c(C)cc(C)cc2C)c1C` the inhibition was 6.54%.
The inhibition of `CCOc1ccc(NC(C)=O)cc1` is reported as 1.21%.
With `O=C(O)c1ccccc1` the inhibition was -5.65%.
`CC[C@H](C)C(=O)O[C@H]1C[C@@H](C)C=C2C=C[C@H](C)[C@H](CC[C@@H]3C[C@@H](O)CC(=O)O3)[C@H]21` gave an inhibition of -1.2%.
The inhibition of `Cc1cc(Nc2nc(N[C@@H](C)c3ncc(F)cn3)ncc2Cl)[nH]n1` is reported as 0.42%.
`Cc1ccc(-c2cn3c4c(sc3n2)CCCC4)cc1` gave an inhibition of 6.24%.
`C[C@]12CC[C@@H](O)C[C@@H]1CC[C@@H]1[C@@H]2CC[C@]2(C)C(=O)CC[C@@H]12` has an inhibition of 9.04%.
With `CCCC(=O)Nc1ncnc2c1ncn2[C@@H]1O[C@@H]2COP(=O)(O)O[C@H]2[C@H]1OC(=O)CCC` the inhibition was 0%.
The inhibition of `COc1ccc(C(=O)NCc2ccc(OCCN(C)C)cc2)cc1OC` is reported as 9.12%.
`CCN(CC)CCOC(=O)C1(c2ccc([N+](=O)[O-])cc2)CCCC1` gave an inhibition of 6.08%.
With `Cc1ccc(C(=O)c2cc(O)c(O)c([N+](=O)[O-])c2)cc1` the inhibition was 77%.
`CCCCNc1nc(N)c2[nH]c(=O)n(Cc3ccc(OCCN(C)C)nc3)c2n1` has an inhibition of 4.43%.
`Cc1oc(-c2ccccc2)nc1CCC(=O)c1ccc(CC2SC(=O)NC2=O)cc1` (centres unmarked) gave an inhibition of -2.21%.
With `CCC(=O)O[C@@H](O[P@](=O)(CCCCc1ccccc1)CC(=O)N1C[C@H](C2CCCCC2)C[C@H]1C(=O)O)C(C)C` the inhibition was 13.3%.
`O=C(Nc1cccc(C(F)(F)F)c1)Nc1cc(S(=O)(=O)NC2CC2)ccc1-c1ccsc1` has an inhibition of 2.81%.
The inhibition of `COC(=O)CCC(=O)CN` is reported as -0.81%.
`C/C(O)=C(\C#N)C(=O)Nc1cc(Br)ccc1Br` gave an inhibition of 5.27%.
`O=S(=O)(O)c1ccc2[nH]c(-c3ccccc3)nc2c1` gave an inhibition of 0.64%.
With `O=C1C(=O)N(Cc2ccc(Cl)c(Cl)c2)c2ccccc21` the inhibition was 14.1%.
`CCCC(=O)C1CCN(c2ncnc3c2CN(C(=O)c2ccc(-c4ccccc4)cc2)CC3)CC1` gave an inhibition of 6.41%.
`CC[C@H](C)[C@H](N)C1=N[C@H](C(=O)N[C@@H](CC(C)C)C(=O)N[C@H](CCC(=O)O)C(=O)N[C@H](C(=O)N[C@H]2CCCCNC(=O)[C@H](CC(N)=O)NC(=O)[C@@H](CC(=O)O)NC(=O)[C@H](Cc3cnc[nH]3)NC(=O)[C@@H](Cc3ccccc3)NC(=O)[C@H]([C@@H](C)CC)NC(=O)[C@@H](CCCN)NC2=O)[C@@H](C)CC)CS1` has an inhibition of 0.12%.
`CC(C)n1nnc2cc(C(=O)O)ccc21` gave an inhibition of 5.54%.
With `O=C(Nc1ccccc1)Nc1ccc(-c2ccc(C(=O)[C@@H]3CCC[C@H]3C(=O)O)cc2)cc1` the inhibition was 8.73%.
`C#Cc1c[nH]c(=O)[nH]c1=O` has an inhibition of 2.23%.

Sample 2
Target: Sal-like protein 4, full length isoform A (SALL4, Homo sapiens, UniProt Q9UJQ4, residues 1-1053)
Sequence of UniProt Q9UJQ4 (whole entry, looked up): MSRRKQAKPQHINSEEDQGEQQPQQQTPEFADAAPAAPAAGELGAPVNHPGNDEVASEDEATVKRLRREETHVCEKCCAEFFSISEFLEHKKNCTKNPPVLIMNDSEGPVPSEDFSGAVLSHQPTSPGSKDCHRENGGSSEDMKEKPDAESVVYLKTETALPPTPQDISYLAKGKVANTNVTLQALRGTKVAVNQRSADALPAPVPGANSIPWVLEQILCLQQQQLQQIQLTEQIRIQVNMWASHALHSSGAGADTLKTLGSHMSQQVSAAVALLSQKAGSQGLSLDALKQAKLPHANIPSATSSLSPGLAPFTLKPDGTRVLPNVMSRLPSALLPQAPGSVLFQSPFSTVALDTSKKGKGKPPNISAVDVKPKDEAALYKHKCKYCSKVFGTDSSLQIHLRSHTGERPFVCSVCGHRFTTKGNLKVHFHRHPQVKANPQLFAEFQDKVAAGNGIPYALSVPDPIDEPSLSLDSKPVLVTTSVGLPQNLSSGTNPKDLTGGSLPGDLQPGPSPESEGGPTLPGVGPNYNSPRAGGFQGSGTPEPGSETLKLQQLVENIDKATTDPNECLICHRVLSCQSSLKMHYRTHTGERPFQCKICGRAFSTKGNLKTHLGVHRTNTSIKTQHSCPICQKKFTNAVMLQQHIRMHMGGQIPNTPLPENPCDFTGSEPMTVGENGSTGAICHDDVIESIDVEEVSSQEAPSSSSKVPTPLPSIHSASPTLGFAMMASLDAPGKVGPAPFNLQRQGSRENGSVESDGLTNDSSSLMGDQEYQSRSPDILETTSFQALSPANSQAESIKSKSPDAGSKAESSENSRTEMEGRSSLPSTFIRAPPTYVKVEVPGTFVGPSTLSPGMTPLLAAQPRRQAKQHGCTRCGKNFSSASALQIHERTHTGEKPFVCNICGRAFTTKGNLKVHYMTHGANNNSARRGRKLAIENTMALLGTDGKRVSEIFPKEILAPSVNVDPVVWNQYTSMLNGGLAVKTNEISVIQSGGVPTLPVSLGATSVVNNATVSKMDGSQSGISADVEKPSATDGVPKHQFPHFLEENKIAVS
Method: universal PBM
Form: double-stranded DNA, one strand shown
Medium: in vitro
Tested at: 600 nM
Setting: 8-mer, flanks averaged, mean of replicates
Reading: higher = stronger binding
`CAGACTAA` has an E-score of -0.0141.
The E-score of `ATTAACCC` is reported as 0.102.
With `ACCAATTC` the E-score was 0.0154.
For `AAGGTCCC`, the E-score was -0.256.
The E-score of `AATACAGG` is reported as 0.18.
`TATAGCAA` gave an E-score of 0.269.
With `CGATAACC` the E-score was 0.0227.
With `ATAACTGG` the E-score was 0.231.

Sample 3
Target: Centromere-binding protein 1, full length, His-tagged (CBF1, Saccharomyces cerevisiae, UniProt P17106, residues 1-351)
Sequence of UniProt P17106 (whole entry, looked up): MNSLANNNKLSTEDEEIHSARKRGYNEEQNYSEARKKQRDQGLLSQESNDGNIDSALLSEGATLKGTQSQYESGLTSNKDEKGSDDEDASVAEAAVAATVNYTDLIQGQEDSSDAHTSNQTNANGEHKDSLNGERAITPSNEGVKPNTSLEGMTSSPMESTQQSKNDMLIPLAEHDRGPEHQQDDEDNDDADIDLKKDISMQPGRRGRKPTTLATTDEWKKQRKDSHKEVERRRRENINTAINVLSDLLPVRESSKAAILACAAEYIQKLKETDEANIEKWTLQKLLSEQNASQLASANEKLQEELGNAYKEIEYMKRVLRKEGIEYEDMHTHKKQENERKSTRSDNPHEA
Method: competition protein-binding microarray
Form: double-stranded DNA, one strand shown
Medium: in vitro
Tested at: 2 µM
Setting: whole 60-bp probe, lowest competitor level
With: Pho4 competitor, 0.05 µM
Reading: higher = stronger binding
`CTAACGAAGGTTTGTCACTATACTTACAAGCCAAGTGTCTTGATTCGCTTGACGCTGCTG` has a fluorescence intensity of 70.2 a.u.
`CTTCTGTAAATTTGTCACCCAACTTGACGCGCCCCGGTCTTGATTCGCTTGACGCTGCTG` gave a fluorescence intensity of 91.4 a.u.
`TATTTTGGAGTTAGGGTTGTGATGCTTGACGATAACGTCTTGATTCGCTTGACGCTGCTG` gave a fluorescence intensity of 77.1 a.u.
The fluorescence intensity of `AAGGACTCTAACTGGCACGTCTGGTATAGCGGACAGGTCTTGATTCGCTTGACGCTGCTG` is reported as 73.6 a.u.
With `CTTTCCCGATCTTGGGCCGTGGGTGTAGCACATTTGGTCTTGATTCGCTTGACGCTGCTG` the fluorescence intensity was 70.8 a.u.
`GTCTTGTCTCATTGGCCGGTGGGTGTCCCCACTTCAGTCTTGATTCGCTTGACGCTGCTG` gave a fluorescence intensity of 66.7 a.u.
`CTTTTCTGCTACGGCCACGTGGCCGCAGCCCGATTTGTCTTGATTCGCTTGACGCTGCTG` has a fluorescence intensity of 1120 a.u.
For `TGCGCAACAACTTGCTAGGTGGGTGTATGTCTAGAAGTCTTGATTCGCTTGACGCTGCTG`, the fluorescence intensity was 72.8 a.u.

Sample 4
Target: Replicase polyprotein 1ab, main protease (rep, Severe acute respiratory syndrome coronavirus 2, UniProt P0DTD1)
Observed: enzyme activity
Mode: inhibitor
Setting: without DTT
`Oc1cc(CNC(=S)/C=C/c2cc(O)c(O)c(Br)c2)cc(O)c1O` gave an IC50 of 500 nM.
The IC50 of `CNC(=O)ON(C(C)=O)C(=O)NC` is reported as 1300 nM.
`Cc1cc(-c2ccc(/N=N/c3ccc4c(S(=O)(=O)O)cc(S(=O)(=O)O)c(N)c4c3O)c(C)c2)ccc1/N=N/c1ccc2c(S(=O)(=O)O)cc(S(=O)(=O)O)c(N)c2c1O` gave an IC50 of > 20000 nM and 9100 nM.

Sample 5
Target: RING finger protein unkempt homolog, zinc fingers 1-6, GST-SBP tag (UNK, Homo sapiens, UniProt Q9C0B0, residues 30-357)
Sequence of UniProt Q9C0B0 (30-357, looked up): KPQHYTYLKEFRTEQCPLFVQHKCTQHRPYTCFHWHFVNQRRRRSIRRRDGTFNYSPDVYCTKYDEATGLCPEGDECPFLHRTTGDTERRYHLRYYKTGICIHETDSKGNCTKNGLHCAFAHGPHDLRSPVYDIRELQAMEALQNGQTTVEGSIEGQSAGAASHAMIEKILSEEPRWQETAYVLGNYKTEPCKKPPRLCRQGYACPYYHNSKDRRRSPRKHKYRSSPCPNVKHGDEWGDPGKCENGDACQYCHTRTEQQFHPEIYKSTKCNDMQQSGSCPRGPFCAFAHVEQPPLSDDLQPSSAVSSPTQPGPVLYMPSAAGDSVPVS
Method: RNA Bind-n-Seq
Form: RNA
Medium: in vitro
Tested at: not given
Setting: RNA with constant flanks, human and mouse sites, ends assumed
Reference: input RNA pool
Reading: higher = stronger binding
The bound/input enrichment of `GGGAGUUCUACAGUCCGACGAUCAAGGCUGAGUGUGGCAAAGCCUUCGUCUCCAAGUAUAAGCUGAUGAGACACAUGGCCACACACUCGCCACAGAAGAUUCACCAGUGUACUCACUGUGAGAAGACAUUCAACCGGAAGGACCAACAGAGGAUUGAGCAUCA` is reported as 0.135 ratio.
`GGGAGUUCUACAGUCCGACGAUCGGAUCCAUUGCCUUGAAGAAAGUGAAAUUCCAAGCUAAGCUAGAACAUGAAUAUAUCCAGAACUUCAAAAUACUACAAGCAGGCUUCAAGAGGAUGGGCGUUGACAAAAUAAUUCCUGUGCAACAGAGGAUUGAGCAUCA` has a bound/input enrichment of 0.448 ratio.
`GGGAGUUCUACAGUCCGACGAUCUUGAAGCAAGUUCUCGGCCAGAUGGUGAUUGAUGAGGAGCUUCUGGGAGAUGGACACAGCUAUAGUCCUAGAGCUAUUCAUUCAUGGCUGACCAGGGCCAUGUACAGCCGGCGCUCGAAGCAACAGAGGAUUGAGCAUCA` has a bound/input enrichment of 0.116 ratio.
For `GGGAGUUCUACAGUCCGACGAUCCGGGGGCGGGGUGGGGGCAGCCCUUUCCCAGGCGGUAGCGGGGGCGGCGUCGCUGUUGCCCUUUUAAGCCGCGGGGCCGCCGCCUCCUGCCGCUGGAGUCGGUUACAAAGGAAGCGCCACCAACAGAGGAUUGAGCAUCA`, the bound/input enrichment was 0.234 ratio.
For `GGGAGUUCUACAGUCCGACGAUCCCCUGUACCCGAAGAUGAGACACCCAUGUCCUUUCCCUCGGUCACAGGUAGCACCUUGGAUGUCACUCAUGUCUCUCGGGAACCUCACUUUUGAGUGUUAAUGAGCCCCUAAGUGCUGUUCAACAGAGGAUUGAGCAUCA`, the bound/input enrichment was 0.14 ratio.
With `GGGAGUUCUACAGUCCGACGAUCAAUGUAGAAUGGGAAACUAAUAGAGAUGAUUCUGACAAUGGAGAUAUUAAUUAUGAUUAUGUUCAUGAAUUGUCAUUGGAAAUGAAGCGUCAGAAGAUACAGAGGGAAUUAAUGAAGCUGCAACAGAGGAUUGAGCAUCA` the bound/input enrichment was 1.51 ratio.
The bound/input enrichment of `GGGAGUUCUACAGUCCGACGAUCAAGAUUGGGCUUAUUCAGUUUUGCUUAUCUGCUCCCAAAACAGACAUGGAUAAUCAAAUAGUGGUUUCUGACUAUGCCCAGAUGGACCGAGUGCUGCGAGAAGAGAGAGCCUAUAUUUUACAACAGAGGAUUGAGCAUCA` is reported as 0.494 ratio.
`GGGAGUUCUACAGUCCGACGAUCUAAUUUGGCUGCAAUUGCAUGAAAUCCCAAUGGUGUAGACCAGUGGCGAUGGAUCUAGGAGUUUACCAACUGAGACAUUUUUCCAUUUCUUUCUUGUCGUCUUUGCUGGGAACCGAAAACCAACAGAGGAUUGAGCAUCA` has a bound/input enrichment of 0.304 ratio.

Sample 6
Cell line: HEK-293T/ACE2
Tested at: 10 µM
Time: 16 h
Reference: vehicle
With `NC(=O)c1cnccn1` the viability was 101%.
With `CCC1(C)CC(=O)NC1=O` (centres unmarked) the viability was 98.8%.
`Cc1ncc(CO)c(CO)c1O` gave a viability of 101%.
For `O=C1OC2(c3ccc(O)cc3Oc3cc(O)ccc32)c2ccccc21`, the viability was 102%.

For quick reference, copied from above (sample 3):
With `CTTTCCCGATCTTGGGCCGTGGGTGTAGCACATTTGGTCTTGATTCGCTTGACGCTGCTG` the fluorescence intensity was 70.8 a.u.
`GTCTTGTCTCATTGGCCGGTGGGTGTCCCCACTTCAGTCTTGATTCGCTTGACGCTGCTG` gave a fluorescence intensity of 66.7 a.u.
`CTTTTCTGCTACGGCCACGTGGCCGCAGCCCGATTTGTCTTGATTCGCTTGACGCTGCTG` has a fluorescence intensity of 1120 a.u.
